# Measurements of several laboratories.
# Protocols differ between the studies behind these lines. ± marks the error that the study gave.
SMILES,assay,system,setting,solubility
Cc1cnc(N)c(S(=O)(=O)N(C)CC(=O)Nc2ccc(=O)n(C)c2)c1,,aqueous buffer,pH 6.8,> 0.095 mg/mL
O=C(N=P12CN3CN(CN(C3)C1)C2)c1cccc[c]1[Pd][Br].c1cncc(P(c2cccnc2)c2cccnc2)c1,,water,,500 µM
Cc1cc(S(=O)(=O)N(C)CC(=O)Nc2ccc(N3CCOCC3)c(Cl)c2)c2[nH]ncc2c1,,aqueous buffer,pH 6.8,0.023 mg/mL
CCCCCCCCCCCCCCCC(=O)Nc1nc2ccccc2c2c1ncn2CC(C)C,,,,2.9 mg/mL
Cc1ccc(/C=C/C(=O)O)cc1-c1cc2c(cc1C)C(C)(C)CCC2(C)C,,deionized water,"24 h, 20 °C",7.6 ± 0.1 µM
COc1cc(NC(=O)CN(C)S(=O)(=O)c2cc(C)cnc2N)ccn1,,aqueous buffer,pH 6.8,> 0.1 mg/mL
O=C(CN1CCN(c2cc3c(cc2F)c(=O)c(C(=O)O)cn3C2CC2)CC1)Nc1ccc(Cl)cc1,,DMSO,,28.1 mg/mL
CC(NC(=O)NNS(=O)(=O)c1ccc(OC(F)F)cc1)(C(F)(F)F)C(F)(F)F,,aqueous buffer,pH 7.4,480 µM
CC(C)(CN)CNC(=O)O[C@H]1CCCC2(C1)OOC1(O2)C2CC3CC(C2)CC1C3 (stereo partly shown),,PBS,pH 7.4,164 µM
CCN1CCN(Cc2nc3ccc([N+](=O)[O-])cc3c(=O)n2-c2ccccc2F)CC1,,,pH 7.4,0.122 mg/mL
O=c1c2ccccc2[se]n1CCCCn1[se]c2ccccc2c1=O,,5% Soluplus in water,"24 h, 25 °C, 50 mg/mL",0.116 ± 0.01 mg/mL
Cc1cnc(N)c(S(=O)(=O)N(C)CC(=O)Nc2ccc(N3CCN(C)CC3)c(Cl)c2)c1,,aqueous buffer,pH 6.8,> 0.12 mg/mL
CSCC[C@H](NC(=O)[C@H](CCCCN)NC(=O)[C@H](CCCNC(=N)N)NC(=O)[C@H](Cc1ccccc1)NC(=O)CNC(=O)[C@H](CO)NC(=O)[C@H](CCC(N)=O)NC(=O)[C@H](CC(C)C)NC(=O)[C@@H](NC(=O)[C@H](C)NC(=O)[C@H](CO)NC(=O)[C@@H](NC(=O)[C@H](CCCCN)NC(=O)c1ccc(N=Nc2ccc(N(C)C)cc2)cc1)[C@@H](C)O)C(C)C)C(=O)N[C@@H](CCC(=O)O)C(=O)NCCNc1cccc2c(S(=O)(=O)O)cccc12,shake-flask HPLC,,"1 h, pH 7.2, 37 °C, 5% DMSO, 0.01% Triton X-100",47.4 ± 1.3 µM
Nc1nc(Nc2ccc(Cl)cc2)nn1S(=O)(=O)c1ccc2ccccc2c1,,,"4 (unit not given), pH 7.4",< 0.2 µM
CSCC[C@H](N)C(=O)N[C@@H](CCC(N)=O)C(=O)N[C@@H](CCC(=O)O)C(=O)N[C@@H](CC(C)C)C(=O)N[C@@H](CCCNC(=N)N)C(=O)N[C@@H](Cc1c[nH]c2ccccc12)C(=O)N[C@@H](CS)C(=O)N[C@@H](CC(N)=O)C(N)=O,,,,< 40 mg/mL
COc1ccc(NC(=O)CN(C)S(=O)(=O)c2cc(C)cnc2N)cc1Cl,,aqueous buffer,pH 6.8,0.0046 mg/mL
CC[C@H](C)[C@H](N)C(=O)N[C@@H](CCC(=O)O)C(=O)N[C@@H](CCC(=O)O)C(=O)N[C@@H](CCC(N)=O)C(=O)N[C@@H](C)C(=O)N[C@@H](CCCCN)C(=O)N[C@H](C(=O)N[C@@H](C)C(=O)N[C@@H](CC(C)C)C(=O)N[C@@H](CC(=O)O)C(=O)N[C@@H](CCCCN)C(=O)N[C@@H](C)C(=O)N[C@@H](CC(N)=O)C(=O)N[C@@H](Cc1c[nH]cn1)C(=O)N[C@@H](CCC(=O)O)C(=O)N[C@@H](C)C(=O)N[C@@H](CCC(=O)O)C(=O)N[C@@H](CC(=O)O)C(=O)N[C@@H](CC(C)C)C(=O)N[C@@H](C)C(=O)N[C@@H](Cc1ccc(O)cc1)C(=O)N[C@@H](CCC(N)=O)C(=O)N[C@@H](CO)C(=O)N[C@@H](CCCCN)C(N)=O)[C@@H](C)O,,PBS,pH 7.5,≥ 800 µM
CC(=O)CCC1C(=O)NC(C(C)C)C(=O)NC(Cc2cccc(O)c2)C(=O)N2CCCC(N2)C(=O)OC(C(C)=CC=CC(=O)N2CCCCO2)CC=CC=CC(O)C(C)C1O (stereo not shown),,PBS with 1% DMSO,"4 h, pH 7.4, room temperature",330 µM
Cc1cnc(N)c(S(=O)(=O)N(C)CC(=O)Nc2ccc(OCCN(C)C)c(Cl)c2)c1,,aqueous buffer,pH 6.8,> 0.11 mg/mL
CC(C)(C)c1ccc(C(=O)Nc2cc(Cl)c(Br)cc2C(=O)O)cc1,kinetic,PBS,pH 7.4,62.3 µM
CC(=O)N[C@H]1CSCc2cc(CN=[N+]=[N-])cc(c2)CSC[C@@H](C(N)=O)NC(=O)[C@H](CC(N)=O)NC(=O)[C@H](CC(N)=O)NC(=O)[C@H](CC(C)C)NC(=O)[C@H](CC(C)C)NC(=O)[C@H](Cc2ccccc2)NC(=O)[C@H](C(C)C)NC(=O)[C@H](CC(=O)O)NC(=O)[C@H]([C@@H](C)O)NC(=O)[C@H](CCC(=O)O)NC(=O)[C@H](CC(N)=O)NC(=O)[C@H](CCC(=O)O)NC(=O)CNC(=O)[C@H](Cc2c[nH]c3ccccc23)NC(=O)[C@H]([C@@H](C)O)NC1=O,,acetonitrile/water 1:1 with 0.1% TFA,crude cyclic peptide,5.6 mg/mL
O=c1c2ccccc2[se]n1CCCn1[se]c2ccccc2c1=O,,10% Soluplus in water,"24 h, 25 °C, 100 mg/mL",0.232 ± 0.013 mg/mL
CC(=O)N[C@H]1CSCC(=O)N2CN(C(=O)CN=[N+]=[N-])CN(C2)C(=O)CSC[C@@H](C(N)=O)NC(=O)[C@H](CC(N)=O)NC(=O)[C@H](CC(N)=O)NC(=O)[C@H](CC(C)C)NC(=O)[C@H](CC(C)C)NC(=O)[C@H](Cc2ccccc2)NC(=O)[C@H](C(C)C)NC(=O)[C@H](CC(=O)O)NC(=O)[C@H]([C@@H](C)O)NC(=O)[C@H](CCC(=O)O)NC(=O)[C@H](CC(N)=O)NC(=O)[C@H](CCC(=O)O)NC(=O)CNC(=O)[C@H](Cc2c[nH]c3ccccc23)NC(=O)[C@H]([C@@H](C)O)NC1=O,,acetonitrile/water 1:1 with 0.1% TFA,crude cyclic peptide,16.2 mg/mL
CSCC[C@H](NC(=O)[C@H](CCC(=O)O)NC(=O)[C@H](Cc1ccc(O)cc1)NC(=O)[C@@H](NC(=O)[C@H](CC(C)C)NC(=O)[C@H](CC(=O)O)NC(=O)[C@H](CC(C)C)NC(C)=O)[C@@H](C)O)C(=O)N[C@@H](CC(C)C)C(=O)N[C@@H](CO)C(=O)N[C@@H](CC(C)C)C(=O)N[C@@H](CCC(N)=O)C(=O)N[C@@H](CCC(N)=O)C(=O)N[C@H](C(=O)N[C@H](C(=O)N[C@@H](CCCCN)C(=O)N[C@@]1(C)CCCC=CCCC[C@@](C)(C(=O)N[C@@H](Cc2ccc(O)cc2)C(N)=O)NC(=O)[C@H](CCC(=O)O)NC(=O)[C@H](CC(N)=O)NC(=O)[C@H](CC(C)C)NC1=O)C(C)C)C(C)C,,,"concentration not given, 24 (unit not given), pH 7.4",10.5 mg/mL
Cc1ccc(-n2nc3c(=O)n(CCCC(=O)NCC(C)c4ccccc4)nc(C)c3c2C)cc1 (stereo not shown),,PBS,"24 h, pH 7.4, 37 °C",30 µM
O=P([O-])([O-])Oc1ccc(-c2cc(=S)ss2)cc1.[Na+].[Na+],HPLC,0.9% NaCl,"24 h, pH 7.4, 25 °C",1.56 ± 0.148 mg/mL
COc1ccc2[nH]c3c(c2c1)CCN(C)CC3,,0.9% saline,fumarate salt,≥ 40 mg/mL
CCCCCc1cc(OC(=O)C(NC(=O)CCC(=O)O)C(C)C)c2c(c1)OC(C)(C)C1CCC(C)=CC21 (stereo not shown),shake-flask,aqueous buffer,"24 h, pH 3, 25 °C",< 0.001 mg/mL
